# Earlier results, collected from citations in different studies.
# Lines come from different studies, so protocols differ. ± gives the spread as reported.
Compound,test,test system,conditions,scale,measurement,value
CCS(=O)(=O)N1CC(CC#N)(n2cc(-c3ncnc4[nH]ccc34)cn2)C1,,healthy humans,"concentration not given, with: probenecid",baseline: without probenecid,renal clearance,69%
Cc1nc2cccc(OCC(C)(C)C(=O)NC(C)C)c2c(N)c1C(=O)[O-].[Na+],,"rat, male, plasma","oral gavage, 30 mg/kg, molecular weight corrected",baseline: parent drug,AUC(0-t),89.4%
Cc1cnc(NC(=O)C2=C(O)c3ccccc3S(=O)(=O)N2C)s1,"bioactivation, substrate",human liver microsomes,,,Km,26 µM
Nc1ccn([C@@H]2CS[C@H](CO)O2)c(=O)n1,,Japanese HIV-infected patients,"oral, 300 mg single dose, fasted, with: abacavir 600 mg",,AUC(0-t),16300 ng·h/mL
CCN(CC)CCNC(=O)c1c(C)[nH]c(/C=C2\C(=O)Nc3ccc(F)cc32)c1C,,patients,"dose not given, all grades",,patients with thrombocytopenia,65%
CC(C)(CO)c1cc(NC(=O)Nc2ccc(-c3cn4c(n3)sc3cc(OCCN5CCOCC5)ccc34)cc2)no1,,patients with AML,repeated daily dosing,,metabolite to parent ratio,~0.6
O=C(O)c1cc(-c2ccc(F)cc2F)ccc1O,,plasma,concentration not given,,Cmax,495000 nM
COc1cccc(-c2c(C)n(Cc3c(F)cccc3C(F)(F)F)c(=O)n(C[C@H](NCCCC(=O)O)c3ccccc3)c2=O)c1F,,"human, Child-Pugh C hepatic impairment","150 mg single dose, mean observed",baseline: patients over healthy volunteers,Cmax ratio,6.2
Oc1ccc(/C=C/c2cc(O)cc(O)c2)cc1,,plasma,concentration not given,,Cmax,180 nM
CC[C@H](C)[C@H](NC(=O)[C@H](C)NC(=O)CN)C(=O)N[C@H](C(=O)NCC(=O)N[C@@H](CC(C)C)C(=O)N[C@@H](CCSC)C(=O)N[C@H](C(=O)NCC(=O)NCC(=O)N[C@H](C(=O)N[C@H](C(=O)N[C@H](C(=O)N[C@@H](C)C(=O)O)[C@@H](C)CC)C(C)C)C(C)C)C(C)C)[C@@H](C)CC,filtration,sodium phosphate buffer,pH 7.4,,solubility,22 ± 9 µM
CC(CN(C)C)CN1c2ccccc2CCc2ccccc21 (stereo not shown),,,,,logP,4.2
CC(C)(C)NC(=O)[C@@H]1C[C@@H]2CCCC[C@@H]2CN1C[C@@H](O)[C@H](Cc1ccccc1)NC(=O)[C@H](CC(N)=O)NC(=O)c1ccc2ccccc2n1,,octanol/water,,,logP,4.1
COc1cc(F)c(C(C)C)cc1-c1ccc(C(F)(F)F)cc1CN1C(=O)O[C@H](c2cc(C(F)(F)F)cc(C(F)(F)F)c2)[C@@H]1C,,human,"dose not given, twelve weeks after discontinuation",baseline: during treatment,plasma concentration after discontinuation,40%
CC1(C)S[C@@H]2[C@H](NC(=O)[C@H](N)c3ccccc3)C(=O)N2[C@H]1C(=O)O,,plasma,concentration not given,,Cmax,8420 nM
CO[C@H]1C[C@@H]2CC[C@@H](C)[C@@](O)(O2)C(=O)C(=O)N2CCCC[C@H]2C(=O)O[C@H]([C@H](C)C[C@@H]2CC[C@@H](OCCO)[C@H](OC)C2)CC(=O)[C@H](C)/C=C(\C)[C@@H](O)[C@@H](OC)C(=O)[C@H](C)C[C@H](C)/C=C/C=C/C=C/1C,,human transplant recipients,"2.5 mg/day, one month co-treatment","baseline: healthy volunteers, literature",rosuvastatin Cmax,~2.5 fold
Nc1nc(NC2CC2)c2ncn([C@H]3C=C[C@@H](CO)C3)c2n1,,"healthy, mostly White or Black","600 mg, single dose, fasted, with: dolutegravir 50 mg, lamivudine 300 mg",,median Tmax,2 h
COc1cc(C[C@H]2C(=O)OC[C@@H]2Cc2ccc(OC)c(OC)c2)ccc1O,,diabetic rats,"oral, dose not given",baseline: normal rats,AUC(0-10 h) increase,223%
COc1cccc(-c2ccc(NC(=O)C3=C(C(=O)O)CCC3)c(F)c2)c1,,"human, clinical database",,,well-tolerated daily dose,< 70 mg
CN(C)C(=O)c1cc2cnc(Nc3ccc(N4CCNCC4)cn3)nc2n1C1CCCC1,,"recurrent glioblastoma patients, CSF","oral, 900 mg/day, 5 days",,unbound concentration,370 nM
O=c1c(-c2ccc(O)cc2)coc2cc(O)cc(O)c12,,plasma,concentration not given,,Cmax,1840 nM
Cc1ccccc1-c1cc(N2CCN(C)CC2)ncc1N(C)C(=O)C(C)(C)c1cc(C(F)(F)F)cc(C(F)(F)F)c1,,"healthy volunteers, plasma","oral, dose not given, netupitant-palonosetron alone, ketoconazole study",,CL/F,18.4 L/h
CCOc1ccc(Cc2cc([C@]34OC[C@](CO)(O3)[C@@H](O)[C@H](O)[C@H]4O)ccc2Cl)cc1,,human,,,absolute bioavailability,~100%
CN1CCN(c2ccc3nc(-c4c(N)c5c(F)cccc5[nH]c4=O)[nH]c3c2)CC1,,human,"oral, 500 mg once daily, day 15",,AUC(0-t),4340 ± 3780 ng·h/mL
CN1C(C(=O)Nc2ccccn2)=C(O)c2ccccc2S1(=O)=O,,water,hydrate,,aqueous solubility,-1.91 log mg/mL
COc1ccc2[nH]c([S+]([O-])Cc3ncc(C)c(OC)c3C)nc2c1 (stereo not shown),,plasma,concentration not given,,unbound Cmax,40000 nM
CN[C@H]1C(=O)N[C@@H]2Cc3ccc(cc3)Oc3cc4cc(c3O[C@@H]3O[C@H](C(=O)O)[C@@H](O)[C@H](O)[C@H]3NC(=O)CCCCCCCCC(C)C)Oc3ccc(cc3Cl)[C@@H](O)[C@@H]3NC(=O)[C@H](NC(=O)[C@@H]4NC(=O)[C@@H](NC2=O)c2cc(cc(O)c2Cl)Oc2cc1ccc2O)c1ccc(O)c(c1)-c1c(O[C@H]2O[C@H](CO)[C@@H](O)[C@H](O)[C@@H]2O)cc(O)cc1[C@@H](C(=O)NCCCN(C)C)NC3=O,,"human, plasma",dose not given,,unbound fraction,~7%
CC[C@H](C)[C@H](NC(=O)[C@@H](CCCCN)NC(=O)[C@@H](CCCCN)NC(=O)[C@@H](Cc1ccccc1)NC(=O)[C@@H](CC(C)C)NC(=O)[C@@H](CCCCN)NC(=O)[C@H](N)CCCCN)C(=O)N[C@@H](CC(C)C)C(=O)N[C@@H](CCCCN)C(=O)N[C@@H](Cc1ccc(O)cc1)C(=O)N[C@@H](CC(C)C)C(N)=O,,horse erythrocytes 5 % v/v,150 µM,,hemolysis,0 ± 0.5%
Cc1cc2c(s1)Nc1ccccc1N=C2N1CCN(C)CC1,,healthy male smokers,"dose not given, with: fluvoxamine",,increase in Cmax,84%
CC/C=C\C/C=C\C/C=C\C/C=C\C/C=C\C/C=C\CCC(=O)Nc1ccn([C@@H]2O[C@H](CO)[C@@H](O)C2(F)F)c(=O)n1,,mouse,"75 mg/kg, Tween 80-ethanol-water vehicle",,plasma half-life,~0.967 h
O[C@@H](COc1cccc2ncccc12)CN1CCN([C@@H]2c3ccccc3[C@@H]3[C@H](c4ccccc42)C3(F)F)CC1,,human,dose not given,,half-life,6 to 24 h
O=C(Nc1ccc(Cl)cc1)Nc1ccc(Cl)c(Cl)c1,,"juvenile Chinook salmon, whole body wet weight","concentration not given, field-collected",,maximum whole-body concentration,6.5 ng/g
CCN(CC)Cc1cc(Nc2ccnc3cc(Cl)ccc23)ccc1O,,rat,"dose not given, outcome decreased, with: ketoconazole",,irreversible liver protein binding,decreased
CC[C@H](C)CCCCC(=O)N[C@@H](CCN)C(=O)N[C@H](C(=O)N[C@@H](CCN)C(=O)N[C@H]1CCNC(=O)[C@H]([C@@H](C)O)NC(=O)[C@H](CCN)NC(=O)[C@H](CCN)NC(=O)[C@H](CC(C)C)NC(=O)[C@@H](Cc2ccccc2)NC(=O)[C@H](CCN)NC1=O)[C@@H](C)O,,critically ill human patients,"intravenous, dose not given, population PK model",,volume of distribution,34.4 L
Nc1ccn([C@@H]2CS[C@H](CO)O2)c(=O)n1,,water,hydrate,,aqueous solubility,1.93 log mg/mL
O=C1c2cccc3c2[C@H](CCC3)CN1[C@@H]1CN2CCC1CC2,,"healthy volunteers, plasma","oral, 0.75 mg, single dose, given alone",,half-life,37.1 h
CO[C@@]12[C@H](COC(N)=O)C3=C(C(=O)C(C)=C(N)C3=O)N1C[C@@H]1N[C@@H]12,,plasma,concentration not given,,Cmax,7100 nM
CC[C@H](C)[C@H](NC(=O)[C@H](CCCCN)NC(=O)[C@H](CCCCN)NC(=O)[C@H](Cc1ccccc1)NC(=O)[C@H](CC(C)C)NC(=O)[C@H](CCCCN)NC(=O)[C@@H](N)CCCCN)C(=O)N[C@@H](CC(C)C)C(=O)N[C@@H](CCCCN)C(=O)N[C@@H](Cc1ccccc1)C(=O)N[C@@H](CC(C)C)C(N)=O,,horse erythrocytes 5 % v/v,150 µM,,hemolysis,34 ± 2.1%
C[C@@H]1O[C@@H](OC[C@H]2O[C@@H](Oc3c(-c4ccc(OCCO)c(OCCO)c4)oc4cc(OCCO)cc(O)c4c3=O)[C@H](O)[C@@H](O)[C@@H]2O)[C@H](O)[C@H](O)[C@H]1O,,plasma,concentration not given,,Cmax,4 nM
CCN1C(=O)N(c2c(F)c(OC)cc(OC)c2F)Cc2cnc3[nH]c(CN4CCOCC4)cc3c21,,patients with cancer,"oral, 20 mg multiple doses, geometric mean",,Cmax at steady state,421 nM
O=C(O)CNC(=O)c1ccccc1[131I],,"normal rat, spleen","60 min, with: co-injected 99mTc-1",,percent injected dose,0 %ID
N#CC[C@H](C1CCCC1)n1cc(-c2ncnc3[nH]ccc23)cn1,,healthy human volunteers,"oral, 25 mg twice daily",,tolerability,not toxic
CNS(=O)(=O)Cc1ccc2[nH]cc(CCN(C)C)c2c1,,plasma,concentration not given,,Cmax,40 nM
CCOc1ccc(Cc2cc([C@@H]3O[C@H](SC)[C@@H](O)[C@H](O)[C@H]3O)ccc2Cl)cc1,,healthy humans,"oral, up to 500 mg once daily, day 7, liquid formulation",,AUC(0-tau),1170 ng·h/mL
CC(=O)N[C@H](Cc1ccccc1)C(=O)N1CCC[C@H]1C(=O)N[C@@H](CCCN=C(N)N)B(O)O,,dog,oral,,oral bioavailability,53%
CC(C)C[C@H](NC(=O)[C@H](Cc1ccccc1)NC(=O)c1cnccn1)B(O)O,,relapsed or refractory multiple myeloma patients,"dose not given, single agent, phase III",,grade 3/4 neutropenia incidence,14.5%
Nc1nc2c(ncn2[C@@H]2O[C@@H]3COP(=O)(O)O[C@H]3[C@H]2O)c(=O)[nH]1,,methanol/water,,,log Kw,0.77
CCc1ccc(CCOc2ccc(CC3SC(=O)NC3=O)cc2)nc1 (stereo not shown),rapid equilibrium dialysis,hepatocyte culture medium,,,unbound fraction,0.19 to 0.34
CO[C@]12C[C@@H](COC(=O)c3cncc(Br)c3)CN(C)[C@@H]1Cc1cn(C)c3cccc2c13,,plasma,concentration not given,,Cmax,0.2 nM
C[C@]12CC[C@H](O)CC1=CC[C@@H]1[C@@H]2CC[C@]2(C)C(c3cccnc3)=CC[C@@H]12,,"human, plasma",,,unbound fraction,< 1%

# Some of these lines once more:
Compound,test,test system,conditions,scale,measurement,value
Nc1ccn([C@@H]2CS[C@H](CO)O2)c(=O)n1,,Japanese HIV-infected patients,"oral, 300 mg single dose, fasted, with: abacavir 600 mg",,AUC(0-t),16300 ng·h/mL
CNS(=O)(=O)Cc1ccc2[nH]cc(CCN(C)C)c2c1,,plasma,concentration not given,,Cmax,40 nM
COc1cccc(-c2ccc(NC(=O)C3=C(C(=O)O)CCC3)c(F)c2)c1,,"human, clinical database",,,well-tolerated daily dose,< 70 mg
